Results gathered from unrelated publications.
A part holds a random share of what one study measured.

Block 1 — method: universal PBM; form: double-stranded DNA, one strand shown; matrix: in vitro; tested at: 600 nM; reading: higher = stronger binding; measurement: E-score
Target: Sal-like protein 4, full length isoform A (SALL4, Homo sapiens, UniProt Q9UJQ4, residues 1-1053)
Chain of UniProt Q9UJQ4 (whole entry, looked up): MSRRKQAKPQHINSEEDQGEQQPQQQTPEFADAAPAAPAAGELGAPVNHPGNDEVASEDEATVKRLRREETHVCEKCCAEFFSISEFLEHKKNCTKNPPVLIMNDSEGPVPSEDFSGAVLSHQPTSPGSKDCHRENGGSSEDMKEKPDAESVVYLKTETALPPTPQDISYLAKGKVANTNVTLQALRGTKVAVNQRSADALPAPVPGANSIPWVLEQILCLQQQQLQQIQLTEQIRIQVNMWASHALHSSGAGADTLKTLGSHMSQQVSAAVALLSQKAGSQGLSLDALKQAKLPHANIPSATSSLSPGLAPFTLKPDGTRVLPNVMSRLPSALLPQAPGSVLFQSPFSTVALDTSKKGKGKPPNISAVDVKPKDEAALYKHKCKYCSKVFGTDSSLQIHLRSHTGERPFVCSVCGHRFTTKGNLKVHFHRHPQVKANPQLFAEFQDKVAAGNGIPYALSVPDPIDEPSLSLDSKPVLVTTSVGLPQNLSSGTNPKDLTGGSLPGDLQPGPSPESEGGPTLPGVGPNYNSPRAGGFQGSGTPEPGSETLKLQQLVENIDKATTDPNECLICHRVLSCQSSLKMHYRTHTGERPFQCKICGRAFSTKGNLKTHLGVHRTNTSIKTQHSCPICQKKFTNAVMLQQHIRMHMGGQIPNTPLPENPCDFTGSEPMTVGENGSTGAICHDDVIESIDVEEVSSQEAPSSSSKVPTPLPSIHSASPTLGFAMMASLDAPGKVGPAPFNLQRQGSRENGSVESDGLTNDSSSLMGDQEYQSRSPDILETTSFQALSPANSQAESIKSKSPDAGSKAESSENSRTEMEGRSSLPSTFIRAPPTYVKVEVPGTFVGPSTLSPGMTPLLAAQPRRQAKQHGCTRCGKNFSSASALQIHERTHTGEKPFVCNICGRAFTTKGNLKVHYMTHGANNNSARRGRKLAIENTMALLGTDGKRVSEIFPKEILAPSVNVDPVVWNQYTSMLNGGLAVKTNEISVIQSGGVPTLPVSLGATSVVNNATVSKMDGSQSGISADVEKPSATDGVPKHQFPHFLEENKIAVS
Notes: 8-mer, flanks averaged, mean of replicates
TCCATCCA: 0.0308
CTTATCCA: 0.103
CATAGGCC: -0.0443
CGACACCC: -0.234

Block 2 — method: protein-binding microarray; form: double-stranded DNA, one strand shown; matrix: in vitro; tested at: 940 nM top; notes: 60-bp whole probe; with: salmon DNA 0.4 mg/ml; baseline: random background probes; reading: higher = stronger binding; measurement: fitted relative affinity
Target: Interferon regulatory factor 5, full length, phosphomimetic (IRF5, Homo sapiens, UniProt Q13568-2, residues 1-514, S451D/S453D/S456D/S462D)
GCCTAGCACTTAGTTATCGGTATCGGTTAGTGCTAGGTCTTGATTCGCTTGACGCTGCTG: 5.72 z-score
GCCTAGCACTTAGGTCTAGGTCTCGGTTAGTGCTAGGTCTTGATTCGCTTGACGCTGCTG: 1.39 z-score
GCCTAGCACTGGTATTTTTTTCTAATTGAGTGCTAGGTCTTGATTCGCTTGACGCTGCTG: 1.2 z-score

Block 3 — method: RNAcompete; form: RNA; matrix: in vitro; tested at: 20 nM; notes: 7-mer, probes averaged, single round; baseline: mean of 7-mers; reading: higher = stronger binding; measurement: 7-mer Z-score
Target: PABPC1L2, full length, GST fusion (mouse, UniProt A0ABA7IW68)
GAAGUCC: -0.18
GCGGUAG: 0.0895
AGGUAUU: -0.182

Single results of other studies
PhoQ, residues 284 288 289 292 302 303 TASMAF  fold induction (PhoP, residues 12 14 15 18 19 SGWQI (Escherichia coli, UniProt P23836); Sort-seq, refers to: YFP reporter; E. coli; PhoQ-PhoP variant library, with: 10 µM Mg2+; baseline: high Mg2+ state, higher = stronger signaling): 9.64

Repeated from above (block 1):
TCCATCCA: 0.0308
